Experimental data of several laboratories.
Protocols differ between the studies behind these lines. ± marks the error that the study gave.

With `Cc1cnc(N2CC3(CCOCC3)C2)c(C(=O)Nc2ccc(C(=O)N3CCc4cc(C(=O)Nc5c(C)cccc5F)sc4-c4ccccc43)cc2)c1` the inhibition was 31% (measured: IL-15; human RSV infection, nasal wash; dose not given, AUC, ITT-IS population; reference: placebo).
Under “complete response, best response”, `O=C1Nc2cc3[nH]nc(-c4ccncc4)c3cc2CN1Cc1ccccc1` is recorded as 0% (RECIST v1.1; human, relapsed or refractory advanced solid tumours; intravenous, 3.6 mg/kg).
`COc1nnc2ccc(N3CCC(c4ccc(OCCN5CCN(C)C(=O)[C@H]5C)cc4)CC3)nn12`: “time HEXIM1 above threshold” 9.1 h (patients; 10 mg twice daily, monotherapy and combination cohorts).
The metabolite level of `C[C@@H](O)CCOC(=O)C[C@@H](C)O` is reported as -6.91 ± 0.41 µmol/L (measured: C16-OH/C14-DC acylcarnitine; human, plasma; 60 min, log2-transformed values).
The AUC(0-tau) of `CN(C(=O)n1cnc(-c2ccc[n+]([O-])c2)c1)C1CCCCC1` is reported as 273 ng·h/mL (measured: OEA; human, plasma; 2.5 mg once daily, day 10).
`CC(C)C[C@@H](NC(=O)[C@H](C)NC(=O)CNC(=O)[C@@H](NC=O)C(C)C)C(=O)N[C@@H](C)C(=O)N[C@@H](C(=O)N[C@H](C(=O)N[C@@H](C(=O)N[C@@H](Cc1c[nH]c2ccccc12)C(=O)N[C@H](CC(C)C)C(=O)N[C@@H](Cc1c[nH]c2ccccc12)C(=O)N[C@H](CC(C)C)C(=O)N[C@@H](Cc1c[nH]c2ccccc12)C(=O)N[C@@H](C(=O)N[C@@H](Cc1c[nH]c2ccccc12)C(=O)NCCO)C(C)C)[C@H](C)O)C(C)C)C(C)C` has an EC50 of 1.83 ± 1.08 nM (H+/Na+ transport, pyranine pH-gradient; EYPC/EYPG LUVs 19:1).
For `COc1ccc(-c2cncc(N[C@@H](C)c3cccc(NC(=O)c4cncc(C)c4)c3)n2)cc1OC`, the fold change was 0.998 (measured: rno-miR-151-3p; rat SU5416/hypoxia model, lung; dose not given; reference: SU5416/hypoxia vehicle).
For `CS(=O)(=O)CCNCc1ccc(-c2ccc3ncnc(Nc4ccc(OCc5cccc(F)c5)c(Cl)c4)c3c2)o1`, the ED50 was < 100 mg/kg (tumour growth; NCI-H292, mouse, subcutaneous NCI-H292 xenograft; oral, 21 days daily, lung cancer).
`C[C@@H](NC(=O)N1C(=O)[C@H](Cc2ccnc(N)c2)[C@H]1C(=O)O)C1CCCCC1` has an ACT AUEC of 135 (human; iv infusion, 0.3 mg/kg/h, 24 h, unit not given; reference: baseline).
`CSCCNc1nc(SCCC(F)(F)F)nc2c1ncn2[C@@H]1O[C@H](COP(=O)(O)OP(=O)(O)C(Cl)(Cl)P(=O)(O)O)[C@@H](O)[C@H]1O` has a platelet aggregation of 54.3 ± 35.8 U (ADP-induced platelet aggregation, Multiplate; human patients, whole blood; 4 to 6 h).
`Cc1n[nH]c2ccc(-c3cc(OC[C@@H](N)Cc4ccccc4)cnc3-c3ccoc3)cc12` — result for “log2 fold change”: -0.564 (kinase binding, competitor, MIB/MS competition, measured: SSK2; Candida albicans cell lysate; 100 nM; reference: DMSO).
`N#Cc1ccc2c(c1)[C@H]1CCCN(C(=O)c3ccc4[nH]cnc4c3)[C@H]1C2`: “change from baseline” -55 nmol/L (measured: cortisol; human, Phase II trial; oral, 80 mg once daily, HPA axis, mean).
`CN1CC[C@@H](c2c(O)cc(O)c3c(=O)cc(-c4ccc(C(F)(F)F)cc4Cl)oc23)[C@@H]1CO`: “bone marrow blasts” 4% (human, AML, morphologic leukemia-free state; concentration not given, baseline 6%).
Under “change, Delta EEG power, in O2-Pz”, `OC(CCN1CCCCC1)(c1ccccc1)C1CC2C=CC1C2` (centres unmarked) is recorded as 35.1% (resting-state EEG; healthy elderly humans; oral, 2 mg, eyes open, LS mean; reference: baseline).
`O=C(O)CNC(=O)Cc1ccccc1` has a sarcomere length of 1.72 µm (ventricular cardiomyocytes, C57BL/6 mouse; dose not given, 0.72 s).
`CCCn1cc(C)c2c(=O)[nH]c(-c3cc(S(=O)(=O)N4CCN(CC)CC4)ccc3OCC)nc21`: “time to maximum DBP change” 1.47 h (supine; median).
For `COc1cc(F)c([C@@H]2CNC(=O)[C@H]2NC(=O)Nc2ccccc2)c(F)c1`, the cardiac output was 59 ± 16 mL/min (LV haemodynamics; rat, myocardial ischaemia-reperfusion; 1 mg/kg, 1008 h, 6 weeks post-injury).
For `C[C@H]1C[C@H]2CSC(N)=N[C@@]2(c2nc(NC(=O)c3ccc(OC(F)F)cn3)cs2)CO1`, “percent change from baseline” read -70% (measured: Aβx-40; healthy adults, plasma; 200 mg single dose, 48 h post-dose; reference: placebo).
`c1ccc(-c2n[nH]cc2-c2ccnc3ccccc23)nc1` — result for “log2 fold change”: 0.0811 (kinase binding, competitor, MIB/MS competition, measured: CKA1; Candida albicans cell lysate; 10 µM; reference: DMSO).
`Cn1cc(-c2ccc(-c3cncc(Cl)c3N3CCC4(CCNC4=O)CC3)cc2)cn1` — result for “log2 fold change”: 2.03 (COLO 205; gene expression, microarray, measured: FAS mRNA; concentration not given, 2 h; reference: untreated cells).
Under “difference from placebo”, `C[C@H](Oc1ccc(Br)cc1-c1ccon1)C(=O)O` is recorded as 13.1% (response peak; human, tibialis anterior muscle; 50 mg, 30 Hz+30 s).
`Cc1cn(-c2ccc3n(c2=O)CCN([C@@H](C)[C@@H]2CC[C@H](c4cc(F)c(Cl)cc4C(F)(F)F)O2)C3=O)cn1`: “change in CSF level” -16.1% (measured: Aβ40; human, cerebrospinal fluid; 150 mg single dose, Tmax; reference: placebo-adjusted baseline).
Under “GSEA enrichment score”, `CN(C)C(=O)c1cc2cnc(Nc3ccc(N4CCNCC4)cn3)nc2n1C1CCCC1` is recorded as 0.334 (RNA-seq GSEA, measured: HALLMARK_ANDROGEN_RESPONSE; MB002 tumour; concentration not given, in vivo; reference: vehicle, direction not given).
`CC(C)C[C@@H](NC(=O)[C@H](C)NC(=O)CNC(=O)[C@@H](NC=O)C(C)C)C(=O)N[C@@H](C)C(=O)N[C@@H](C(=O)N[C@H](C(=O)N[C@@H](C(=O)N[C@@H](Cc1c[nH]c2ccccc12)C(=O)N[C@H](CC(C)C)C(=O)N[C@@H](Cc1ccc2[nH]ccc2c1)C(=O)N[C@H](CC(C)C)C(=O)N[C@@H](Cc1c[nH]c2ccccc12)C(=O)N[C@@H](C(=O)N[C@@H](Cc1c[nH]c2ccccc12)C(=O)NCCO)C(C)C)[C@H](C)O)C(C)C)C(C)C` gave an EC50 of 4.94 ± 1.84 nM (H+/Na+ transport, pyranine pH-gradient; EYPC/EYPG LUVs 19:1).
`O=C1CCc2ccc(OCCCCN3CCN(c4cccc(Cl)c4Cl)CC3)cc2N1`: “stopping or switching” 50% (patients CYP2D6 IM; 12 months).
`[Cl-].[Cl-].[Pt+2].[Ru+2].c1ccc(-c2nc3cc4ccccc4cc3nc2-c2ccccn2)nc1.c1cnc2c(c1)ccc1cccnc12.c1cnc2c(c1)ccc1cccnc12`: “negative activation entropy” 135 ± 7 J/(mol·K) (chloride substitution, UV-vis kinetics; aqueous buffer; concentration not given, pH 7.2, second substitution step, with: thiourea).
